{"data": "Published values of several laboratories", "note": "Lines come from different studies, so protocols differ. Values joined by “and” are separate records of one study, mostly repeats; a detail may differ. Numbers after ± are the reported error."}
{"Compound": "CCN(CCO)CCCC(C)Nc1ccnc2cc(Cl)ccc12 (stereo not shown)", "assay": "item: Fatigue grade 1", "test system": "newly diagnosed glioblastoma patients", "setting": "oral, 400 mg/dose, with radiotherapy and temozolomide", "quantity": "patients with adverse event", "value": "33%"}
{"Compound": "CCCCCCCCCCCCCCCC(=O)N[C@@H](CCC(=O)NCCCC[C@H](NC(=O)[C@H](CC(=O)O)NC(=O)[C@H](CO)NC(=O)[C@@H](NC(=O)[C@H](Cc1ccccc1)NC(=O)[C@@H](NC(=O)CNC(=O)[C@H](CCC(N)=O)NC(=O)[C@H](CO)NC(=O)[C@@H](N)Cc1c[nH]cn1)[C@@H](C)O)[C@@H](C)O)C(=O)N[C@@H](CO)C(=O)N[C@@H](CCC(=O)O)C(=O)N[C@@H](Cc1ccc(O)cc1)C(=O)N[C@@H](CC(C)C)C(=O)N[C@@H](CC(=O)O)C(=O)N[C@@H](CO)C(=O)N[C@@H](CCC(=O)O)C(=O)N[C@@H](CCCNC(=N)N)C(=O)N[C@@H](C)C(=O)N[C@@H](CCCNC(=N)N)C(=O)N[C@@H](CC(=O)O)C(=O)N[C@@H](Cc1ccccc1)C(=O)N[C@H](C(=O)N[C@@H](C)C(=O)N[C@@H](Cc1c[nH]c2ccccc12)C(=O)N[C@@H](CC(C)C)C(=O)N[C@@H](CCC(=O)O)C(=O)N[C@@H](C)C(=O)NCC(=O)NCC(=O)O)C(C)C)C(=O)O", "assay": "item: Diarrhoea", "test system": "humans CrCl 45 to 60 mL/min", "setting": "subcutaneous, 100 µg single dose", "quantity": "treatment-related adverse events", "value": "0%"}
{"Compound": "Nc1nc2cc(-c3ccc4ncc(C(=O)N5CCOCC5)n4c3)ccc2o1", "test system": "human, advanced solid tumours", "setting": "100–300 mg once daily, all-cause", "quantity": "serious adverse events", "value": "46%"}
{"Compound": "N#C[C@@H]1CC(F)(F)CN1C(=O)CNC(=O)c1ccnc2ccc(OCCCN3CCN(C(=O)CN4CCN(CC(=O)[O-])CCN(CC(=O)[O-])CC4)CC3)cc12.[18F-].[Al+3]", "test system": "healthy rat, small intestine", "setting": "iv, 2 h", "quantity": "tissue uptake", "value": "3.69 ± 0.51 %ID/g"}
{"Compound": "COc1cc2c(Oc3ccc4[nH]c(C)cc4c3F)ccnc2cc1OCC1(N)CC1", "test system": "paediatric recurrent refractory sarcoma", "setting": "10 mg", "quantity": "grade 3 blurred vision", "value": "0%"}
{"Compound": "CC(C)n1c(C2CCNCC2)nc2c([N+](=O)[O-])c(Br)c(Br)cc21", "assay": "item: Thrombocytopenia", "test system": "AML patients", "setting": "125 mg", "quantity": "adverse events any grade", "value": "30.9%"}
{"Compound": "C[C@]1(CO)Cc2ncn(-c3ccc(C#N)c(Cl)c3)c2C(=O)O1", "test system": "Japanese subjects", "setting": "80 mg single dose", "quantity": "drug-related Dizziness incidence", "value": "0%"}
{"Compound": "N[C@@H]1c2ccccc2OC12CCN(c1cnc3c(N4CCCc5ncccc54)n[nH]c3n1)CC2", "test system": "patients advanced metastatic solid tumours", "setting": "oral, 60 mg once daily, RP2D expansion phase", "quantity": "TEAE leading to death", "value": "0%"}
{"Compound": "CC1(C)[C@H](C(=O)O[C@H](C#N)c2cccc(Oc3ccccc3)c2)[C@@H]1C=C(Br)Br", "assay": "item: CYP2B6", "test system": "human, age 6 months, recombinant human CYP2B6", "setting": "0.1 µM", "quantity": "enzyme contribution to clearance", "value": "0.39%"}
{"Compound": "CC(C)[C@H](N)C(=O)NCCCS(=O)(=O)O", "test system": "human", "setting": "oral, 265 mg twice daily, 1 h post-dose, steady state, week 65", "quantity": "plasma concentration", "value": "4910 ng/mL"}
{"Compound": "O=C1Nc2cc3[nH]nc(-c4ccncc4)c3cc2CN1Cc1ccccc1", "assay": "CTCAE v4.03", "test system": "advanced solid tumour patients", "setting": "intravenous, 9.6 mg/kg, schedules 1/2", "quantity": "patients with constipation", "value": "11%"}
{"Compound": "COc1ccc([C@@H]2CC(=O)c3c(O)cc(O)cc3O2)cc1O", "test system": "male Sprague-Dawley rat, obese", "setting": "oral, 100 mg/kg of neohesperidin, 0 to 12 h, after β-glucuronidase/sulfatase hydrolysis", "quantity": "urinary excreted amount, total", "value": "2730 ± 1600 ng"}
{"Compound": "COc1ccc([C@@H](O)c2cc(-c3ncnc4cc(N5CCOCC5)ccc34)c(F)cc2Cl)nn1", "test system": "patients, advanced solid tumours", "setting": "oral, 300 mg twice daily, treatment-emergent, with: avelumab", "how to read": "baseline: patients", "quantity": "hyponatraemia incidence", "value": "4%"}
{"Compound": "CCN1[C@@H](C(=O)NC23CCC(C(=O)O)(CC2)CC3)[C@H](c2cccc(Cl)c2F)[C@]2(C(=O)Nc3cc(Cl)ccc32)C12CCCCC2", "test system": "patients with advanced solid tumours", "setting": "oral, 100 mg", "quantity": "Lymphocytopenia incidence", "value": "27.3%"}
{"Compound": "O=S(=O)(Nc1ccccc1)c1ccc(NC(=S)Nc2ccccc2)cc1", "assay": "item: BA%", "test system": "male mouse, blood", "setting": "oral, 20 mg/kg daily, 14 days", "quantity": "blood cell fraction", "value": "0.05%"}
{"Compound": "[O-][S+]1CCc2nc(N3CCC(c4ncc(Cl)cn4)CC3)nc(NC3(CO)CCC3)c21 (stereo not shown)", "assay": "item: upper abdominal pain", "test system": "healthy male humans", "setting": "6 mg twice daily", "quantity": "adverse event incidence", "value": "0%"}
{"Compound": "C[C@]1(O)C[C@@](N)(c2ccc(-c3nc4n(c3-c3ccccc3)COc3ccncc3-4)cc2)C1", "test system": "human, advanced or metastatic solid tumours", "setting": "dose not given, all patients, any grade", "quantity": "patients with Nausea TEAE", "value": "17.6%"}
{"Compound": "CC(C)(O)c1cc(Nc2cc(Oc3cn(C4CC4)nc3C3CCOCC3)ccn2)ccn1", "assay": "Nausea", "test system": "advanced cancer patients, dose escalation", "setting": "oral, dose not given, 3 weeks on/1 off, all causality grade ≥3", "quantity": "treatment-emergent adverse events", "value": "3%"}
{"Compound": "C[C@@H](NC(=O)N1C(=O)[C@H](Cc2ccnc(N)c2)[C@H]1C(=O)O)C1CCCCC1", "test system": "healthy Chinese adult volunteers", "setting": "continuous intravenous infusion, dose not given, 5.0 days, CTCAE 5.0, all doses", "quantity": "urine occult blood positive", "value": "7.5%"}
{"Compound": "C1=Cc2nc1cc1ccc([n-]1)c(C1CC1)c1nc(cc3ccc([n-]3)c2C2CC2)C=C1.CC(=O)[O-].[Mn+3]", "assay": "LC-MS/MS", "test system": "Sprague-Dawley rat, plasma", "setting": "oral gavage, dose not given, 60 min, individual rat Rat1", "quantity": "plasma concentration", "value": "100 ng/mL"}
{"Compound": "O=C(Nc1ccccc1)C1CCN(C(=O)Oc2cccnc2)CC1", "test system": "healthy women", "setting": "oral, 60 mg, 7 days", "quantity": "adverse event Anxiety", "value": "0%"}
{"Compound": "CC(=O)c1c(C)c2cnc(Nc3ccc(C4CCN(CCS(C)(=O)=O)CC4)cn3)nc2n(C2CCCC2)c1=O", "test system": "human, plasma", "setting": "oral, 50 mg twice daily, day 1, single dose, with: letrozole", "quantity": "Vd", "value": "645 L"}
{"Compound": "CC[C@H](C)CCCCC(=O)N[C@@H](CCN)C(=O)N[C@H](C(=O)N[C@@H](CCN)C(=O)N[C@H]1CCNC(=O)[C@H]([C@@H](C)O)NC(=O)[C@H](CCN)NC(=O)[C@H](CCN)NC(=O)[C@H](CC(C)C)NC(=O)[C@@H](Cc2ccccc2)NC(=O)[C@H](CCN)NC1=O)[C@@H](C)O", "test system": "critically ill patients, 28-day non-survivors, plasma", "setting": "dose not given, median", "quantity": "AUC(0-24 h) at steady state", "value": "68200 ng·h/mL"}
{"Compound": "CCc1ccc(CC/C=C/c2ccc3c(c2)C(=O)CC3)cc1", "test system": "Sprague-Dawley rat, female", "setting": "oral, 30 mg/kg/day, 14 days", "quantity": "AST serum activity", "value": "124 U/L"}
{"Compound": "CC(C)C[C@@H](NC(=O)[C@H](Cc1ccccc1)NC(=O)CNC(=O)[C@@H](C)NC(=O)[C@H](Cc1ccc(O)cc1)NC(=O)[C@@H]1CCCN1C(=O)[C@@H]1CCCN1C(=O)c1ccc[n+](C)c1)C(=O)O", "test system": "rat medulla oblongata homogenate", "setting": "100 µM", "quantity": "half-life", "value": "> 60 min"}
{"Compound": "CC(C)[C@@H]1NC(=O)CNC(=O)[C@H](CC(N)=O)NC(=O)[C@H](CCCNC(=N)N)NC(=O)[C@H](Cc2ccc(O)cc2)NC(=O)[C@H](C(C)C)NC(=O)[C@@H](NC(=O)[C@@H](NC(=O)[C@H](CC(N)=O)NC(=O)[C@H](Cc2c[nH]c3ccccc23)NC(=O)[C@H](C)NC(=O)[C@H](Cc2ccccc2)NC(=O)CN)C(C)C)CSSC[C@@H](C(=O)N[C@@H](Cc2cnc[nH]2)C(=O)N[C@@H](CCCNC(=N)N)C(=O)N[C@@H](CCCNC(=N)N)C(=O)N[C@@H](C)C(=O)N[C@@H](CC(N)=O)C(N)=O)NC(=O)[C@H](C(C)C)NC(=O)[C@H](CCCNC(=N)N)NC1=O", "test system": "ICR mouse, blood", "setting": "intramammary, 5 mg/kg, day 5, 3 d dosing", "quantity": "AST", "value": "25 ± 0.67 IU/L"}
{"Compound": "Fc1ccc([C@@H]2CCNC[C@H]2COc2ccc3c(c2)OCO3)cc1", "assay": "item: Tiredness", "test system": "healthy volunteers", "setting": "oral, dose not given, given -1 h relative to LSD, with: LSD", "how to read": "direction not given", "quantity": "List of Complaints score", "value": "8 score"}
{"Compound": "Cn1ncc(-c2nc(N[C@H]3CC[C@H](N)CC3)ncc2Cl)c1CC1CC1", "assay": "item: dyspnea grade 3 or higher", "test system": "human patients phase I", "setting": "dose not given", "quantity": "adverse event incidence", "value": "13%"}
{"Compound": "Cn1cc(-c2nc(N[C@@H]3CCCC[C@@H]3N)c(F)c3c2C(=O)NC3)cn1", "assay": "item: Gastrointestinal haemorrhage", "test system": "patients with relapsed or refractory AML", "setting": "oral, 160 mg once daily", "quantity": "hemorrhagic adverse events", "value": "11%"}
{"Compound": "CO[C@H]1C[C@@H]2CC[C@@H](C)[C@@](O)(O2)C(=O)C(=O)N2CCCC[C@H]2C(=O)O[C@H]([C@H](C)C[C@@H]2CC[C@@H](OC(=O)NCCOCCOCCOCCOCCOCCOCCOCCOCCC(=O)N3CCc4cc(Cn5nc(-c6ccc7oc(N)nc7c6)c6c(N)ncnc65)ccc4C3)[C@H](OC)C2)C[C@@H](O)[C@H](C)/C=C(\\C)[C@@H](O)[C@@H](OC)C(=O)[C@H](C)C[C@H](C)/C=C/C=C/C=C/1C", "test system": "patients with advanced solid tumours", "setting": "intravenous, 6 mg weekly, any grade", "quantity": "vomiting incidence", "value": "50%"}
{"Compound": "CN(C)C1(CNC(=O)c2ccc3c(c2)CCN3C(=O)c2ccccc2)CCOCC1", "test system": "male C57BL/6 mice", "setting": "intraperitoneal, 50 mg/kg, 30 min", "quantity": "brain concentration", "value": "550 ± 171 ng/g"}
{"Compound": "COc1ccc2nc3cc(Cl)ccc3c(Nc3cc(CN4CCCC4)c(O)c(CN4CCCC4)c3)c2n1", "test system": "mouse, blood", "setting": "intraperitoneal, 28 mg/kg", "quantity": "plateletcrit", "value": "0.08%"}
{"Compound": "CC(C)CC(=O)OC[C@H]1O[C@@](C#N)(c2ccc3c(N)ncnn23)[C@H](O)[C@@H]1O", "test system": "Sprague-Dawley rat, bone marrow", "setting": "oral, two days twice daily", "quantity": "micronucleus test", "value": "negative"}
{"Compound": "O=c1ccc2ncc(=O)n3c2n1C[C@H]3CN1CCC(NCc2cc3c(cn2)OCCC3)CC1", "test system": "healthy human participants, urine", "setting": "oral, dose not given, arithmetic mean, with: rifampicin", "quantity": "amount excreted in urine (Ae)", "value": "161 mg"}
{"Compound": "COC[C@@]12CC[C@H](OC)[C@]34C(C([C@H](OC)[C@H]13)[C@]1(OC(C)=O)[C@H]3[C@@H](OC(=O)c5ccccc5)[C@](O)(C[C@H]34)[C@@H](OC)[C@@H]1O)N(C)C2", "test system": "Sprague-Dawley rat, plasma", "setting": "oral, dose not given, with H in PCW extract", "quantity": "Tmax", "value": "45 min"}
{"Compound": "Cn1c(-c2ccc(C(N)=O)cc2F)nnc1C(C)(C)Oc1c(F)cc(Cl)cc1F", "test system": "human", "setting": "oral, 10 mg, single ascending dose, incl. administration site", "quantity": "general disorder TEAE", "value": "0%"}
{"Compound": "O=C(O)CCCOc1ccc(F)cc1-c1cc(-c2ccccc2C(F)(F)F)n(-c2ccccc2)n1", "test system": "female Crl:CD(SD) rats", "setting": "intravenous, 25 µg/kg, 14 d", "quantity": "RET", "value": "3.39% and 3.38% and 3.74% and 3.66% and 3.99%"}
